Measurements gathered from unrelated publications.
Protocols differ between the studies behind these lines. ± gives the spread as reported.

`CCCCCCCCCCCCCCCC(=O)N[C@@H](CCC(=O)NCCCC[C@@H]1NC(=O)[C@H]([C@@H](C)CC)NC(=O)[C@@H](NC(=O)[C@@H]2CCCN2C(=O)[C@H](Cc2ccccc2)NC(=O)[C@H](Cc2c[nH]cn2)NC(=O)[C@@H](NC(=O)[C@H](CC(=O)O)NC(=O)CC(C)C)[C@@H](C)O)CSSC[C@@H](C(=O)N[C@@H](CCCCN)C(N)=O)NC(=O)CNC(=O)[C@H](CCCCN)NC(=O)[C@H](CO)NC(=O)[C@H](CCCNC(=N)N)NC(=O)[C@@H]2CCCN2C(=O)[C@H](CCC(=O)O)NC(=O)[C@H](Cc2ccccc2)NC1=O)C(=O)O` gave a Cmax of 287 ± 90 ng/mL (healthy volunteers, plasma; subcutaneous, 30 mg single, lyophilised formulation).
The Cmax of `O=C(O)c1cc(O)c(O)c(O)c1` is reported as 330 ± 100 nM (broiler chickens, serum; oral, in feed, 2000 mg/kg feed, 24 h, corn diet with tannins).
`O=C(c1cccnc1-c1ccncc1)N1CCC(O)(Cc2ccccc2)CC1` has a Cmax of 3000 ng/mL (healthy Japanese adults, plasma; oral, 600 mg single dose, geometric mean, PK/QTc set).
For `Oc1ccc([C@@H](O)c2cc(-c3ncnc4cc(N5CCOCC5)ccc34)c(F)cc2Cl)nn1`, the Cmax was 170 ng/mL (geometric mean; healthy volunteers, plasma; oral, 100 mg, fasted oral suspension).
For `CCNC(=O)[C@@H]1CCCN1C(=O)[C@H](CCCNC(=N)N)NC(=O)[C@H](CC(C)C)NC(=O)[C@@H](CC(C)C)NC(=O)[C@H](Cc1ccc(O)cc1)NC(=O)[C@H](CO)NC(=O)[C@H](Cc1c[nH]c2ccccc12)NC(=O)[C@H](Cc1c[nH]cn1)NC(=O)[C@@H]1CCC(=O)N1`, the Cmax was 10.2 ± 9.6 ng/mL (healthy female volunteers; oral, 4 mg single dose, fasted).
`CC(=O)Nc1ccc(C[C@H](NC(=O)[C@H](CO)NC(=O)[C@@H](Cc2cccnc2)NC(=O)[C@@H](Cc2ccc(Cl)cc2)NC(=O)[C@@H](Cc2ccc3ccccc3c2)NC(C)=O)C(=O)N[C@H](Cc2ccc(NC(C)=O)cc2)C(=O)N[C@@H](CC(C)C)C(=O)N[C@@H](CCCCNC(C)C)C(=O)N2CCC[C@H]2C(=O)N[C@H](C)C(N)=O)cc1` gave a Cmax of 15.3 ± 10.3 ng/mL (healthy men, fasted, serum; oral, 10 mg single dose).
`CC(=O)N[C@H]1CC[C@H](NC(=O)CN2CCN(c3nncc(-c4ccc(C)cc4)n3)CC2)CC1` has a Cmax of 1190 ng/mL (men aged 18-55 years, plasma; oral, 100 mg single dose, study).
For `CCc1nc(C(N)=O)c(Nc2ccc(N3CCC(N4CCN(C)CC4)CC3)c(OC)c2)nc1NC1CCOCC1`, the Cmax was 1260 ng/mL (patients, plasma; oral, 300 mg once daily, cycle 1 day 15, median).
With `COc1ccc2[nH]c([S+]([O-])Cc3ncc(C)c(OC)c3C)nc2c1` (stereo not drawn) the Cmax was 469 ± 503 ng/mL (LC-MS/MS; healthy Chinese, CYP2C19*3 GG, plasma; oral, 20 mg).
For `CCCCCCCOc1ccc(CCC(N)(CO)CO)cc1C(F)(F)F.Cl`, the Cmax was 0.879 ng/mL (healthy men, plasma; oral, 0.125 mg, day 21).
The Cmax of `Cc1ccc(NC(=O)c2ccc(CN3CCN(C)CC3)cc2)cc1Nc1nccc(-c2cncc(-c3oncc3C)c2)n1` is reported as 3320 ± 1870 ng/mL (Parkinson's disease patients, plasma; oral, 100 mg/day, 7 days, steady state).
The Cmax of `C[C@@H]1CCO[C@H]2Cn3cc(C(=O)NCc4ccc(F)cc4F)c(=O)c(O)c3C(=O)N12` is reported as 5580 ng/mL (population PK, post-hoc; children, 10 to <14 kg, plasma; oral, 20 mg dispersible tablet, steady state, geometric mean).
`COc1c(O)cc(C(=O)O)cc1O` gave a Cmax of 140 ± 90 nM (LC-MS/MS; male Ross broilers, serum; oral, 0.49 mg/kg gallic acid).
The Cmax of `OC[C@H]1O[C@@H](c2cc(Cc3ccc(C4CC4)cc3)c(Cl)c3c2CCO3)[C@H](O)[C@@H](O)[C@@H]1O` is reported as 4.52 ± 1.18 ng/mL (healthy Korean adults, fasted, plasma; oral, 0.3 mg single dose, separate tablets, added: co-administered drug 50 mg).
For `C[C@H]1[C@H]2N(C(=O)CN(C)N2C(=O)NCc2ccccc2)[C@@H](Cc2ccc(OP(=O)(O)O)cc2)C(=O)N1Cc1cccc2cccnc12`, the Cmax was 888 ng/mL (patients, plasma; intravenous infusion, 140 mg/m2 over 4 h, mean).
`CC(C)(CO)c1cc2cc(NC(=O)C3(c4ccc5c(c4)OC(F)(F)O5)CC3)c(F)cc2n1C[C@@H](O)CO` has a Cmax of 5500 ng/mL (human, plasma; oral, standard ETI dose).
`CC[C@H](C)CCCCC(=O)N[C@@H](CCN)C(=O)N[C@H](C(=O)N[C@@H](CCN)C(=O)N[C@H]1CCNC(=O)[C@H]([C@@H](C)O)NC(=O)[C@H](CCN)NC(=O)[C@H](CCN)NC(=O)[C@H](CC(C)C)NC(=O)[C@@H](Cc2ccccc2)NC(=O)[C@H](CCN)NC1=O)[C@@H](C)O` gave a Cmax of 2780 ng/mL (ESKD on long-term intermittent haemodialysis, plasma; intravenous infusion, 0.75 mg/kg, geometric least squares mean).
With `Cc1ccc2c(c1)C(=O)[C@]1(O)CCN(c3ccc4nc(C)ccc4c3)C1=N2.Cl` the Cmax was 720 ± 210 nM (plasma; oral, 10 mg/kg).
For `CCc1nc2c(C)cc(N3CCN(CC(=O)N4CC(O)C4)CC3)cn2c1N(C)c1nc(-c2ccc(F)cc2)c(C#N)s1`, the Cmax was 9800 ng/mL (healthy volunteers, fed, plasma; oral, 600 mg single dose, day 1, suspension).
`OC[C@H]1O[C@@H](c2ccc(F)c(Cc3cc4ccccc4s3)c2)[C@H](O)[C@@H](O)[C@@H]1O` gave a Cmax of 2680 ± 346 ng/mL (Japanese type 2 diabetes patients, plasma; oral, 100 mg/day, day 14).
`CNC(=O)c1cc(Oc2ccc(NC(=O)Nc3ccc(Cl)c(C(F)(F)F)c3)cc2)cc[n+]1[O-]` has a Cmax of 920 ng/mL (patients, plasma; oral, 400 mg twice daily, steady state, without rifampin, geometric mean).
For `O=C([O-])CCCCCCCNC(=O)c1ccccc1O.[Na+]`, the Cmax was 2020 ng/mL (healthy postmenopausal women; oral, 300 mg, geometric mean, added: oral contraceptive plus oral semaglutide).
`COC(=O)N[C@H](C(=O)N1CCC[C@H]1c1ncc(-c2cc(F)c3c(c2)O[C@@H](c2cnc(C4CC4)s2)n2c-3cc3cc(-c4cnc([C@@H]5CCCN5C(=O)[C@@H](NC(=O)OC)C(C)C)[nH]4)ccc32)[nH]1)C(C)C` has a Cmax of 320 ng/mL (healthy adults, plasma; oral, 180 mg once daily, day 6, fasted, alone, geometric mean).
With `C[C@H](NC(=O)/C(C#N)=C/c1cccc(Br)n1)c1ccccc1` the Cmax was 31 ng/mL (LC-MS/MS; patients, plasma; oral, 2 mg/kg, cycle 1 day 1).
For `CCNC(=O)[C@@H]1CCCN1C(=O)[C@H](CCCNC(=N)N)NC(=O)[C@H](CC(C)C)NC(=O)[C@@H](CC(C)C)NC(=O)[C@H](Cc1ccc(O)cc1)NC(=O)[C@H](CO)NC(=O)[C@H](Cc1c[nH]c2ccccc12)NC(=O)[C@H](Cc1c[nH]cn1)NC(=O)[C@@H]1CCC(=O)N1`, the Cmax was 3.7 ± 3.2 ng/mL (healthy premenopausal women, plasma; oral, 4 mg once daily, day 1).
`C=C(F)C(=O)N1CCN(c2nc(OC[C@@H]3CCCN3C)nc3c2CCN(c2cccc4cccc(Cl)c24)C3)C[C@@H]1CC#N` has a Cmax of 551 ng/mL (healthy volunteers, plasma; 600 mg).
`N[C@@H](Cc1ccc(O)c(O)c1)C(=O)O` gave a Cmax of 11700 nM (Parkinson's disease patients, plasma; oral, high carbidopa AUC subgroup (11.5 µmol·h/L), median).
`C[C@@H](N)C1CCN(S(=O)(=O)c2cccc3cnccc23)CC1` gave a Cmax of 3.66 ng/mL (healthy volunteers, fasted, plasma; oral, 25 mg).
For `CCNCc1cc(Nc2ccnc3cc(Cl)ccc23)ccc1O`, the Cmax was 748 ng/mL (healthy volunteers, plasma; oral, dose not given, fixed-dose combination).
With `COc1nnc2ccc(N3CCC(c4ccc(OCCN5CCN(C)C(=O)[C@H]5C)cc4)CC3)nn12` the Cmax was 172 nM (patients, plasma; oral, 20 mg twice daily, single dose, monotherapy).
With `CN[C@H](CC(C)C)C(=O)N[C@H]1C(=O)N[C@@H](CC(N)=O)C(=O)N[C@H]2C(=O)N[C@H]3C(=O)N[C@H](C(=O)N[C@H](C(=O)O)c4cc(O)cc(O)c4-c4cc3ccc4O)[C@H](O)c3ccc(c(Cl)c3)Oc3cc2cc(c3O[C@@H]2O[C@H](CO)[C@@H](O)[C@H](O)[C@H]2O[C@H]2C[C@](C)(N)[C@H](O)[C@H](C)O2)Oc2ccc(cc2Cl)[C@H]1O` the Cmax was 7500 ng/mL (guinea pig, tissue cage fluid; intraperitoneal, 15 mg/kg single).
The Cmax of `CS(=O)(=O)c1ccc([C@@H](O)[C@@H](CF)NC(=O)C(Cl)Cl)cc1` is reported as 10000 ± 710 ng/mL (chicken (Arbor Acres), plasma; oral, 20 mg/kg, added: quercetin 60 mg/kg pretreatment).
With `CC(C)c1nc(N(C)S(C)(=O)=O)nc(-c2ccc(F)cc2)c1/C=C/[C@@H](O)C[C@@H](O)CC(=O)O` the Cmax was 3.6 ng/mL (healthy volunteers, plasma; oral, 10 mg single dose, day 1, given alone, BCRP probe).
With `C=CC(=O)NC1CCN(c2ncc3ncnc(Nc4ccc(Oc5ccc6c(c5)ncn6C)c(C)c4)c3n2)CC1` the Cmax was 1450 nM (measured: total radioactivity; healthy male volunteers, plasma; oral solution, 60 mg, 14C-labelled, geometric mean).
`C[C@@](Cc1ccc(O)c(O)c1)(NN)C(=O)O` has a Cmax of 200 nM (Parkinson's disease patients, plasma; oral, low levodopa Cmax subgroup (<9 µmol/L), median).
For `N[C@@H]1c2ccccc2OC12CCN(c1cnc3c(N4CCCc5ncccc54)n[nH]c3n1)CC2`, the Cmax was 949 ng/mL (patients advanced solid tumours, plasma; oral, 150 mg once daily, cycle 1 day 15).

Excerpt of the above:
With `COc1nnc2ccc(N3CCC(c4ccc(OCCN5CCN(C)C(=O)[C@H]5C)cc4)CC3)nn12` the Cmax was 172 nM (patients, plasma; oral, 20 mg twice daily, single dose, monotherapy).
With `CN[C@H](CC(C)C)C(=O)N[C@H]1C(=O)N[C@@H](CC(N)=O)C(=O)N[C@H]2C(=O)N[C@H]3C(=O)N[C@H](C(=O)N[C@H](C(=O)O)c4cc(O)cc(O)c4-c4cc3ccc4O)[C@H](O)c3ccc(c(Cl)c3)Oc3cc2cc(c3O[C@@H]2O[C@H](CO)[C@@H](O)[C@H](O)[C@H]2O[C@H]2C[C@](C)(N)[C@H](O)[C@H](C)O2)Oc2ccc(cc2Cl)[C@H]1O` the Cmax was 7500 ng/mL (guinea pig, tissue cage fluid; intraperitoneal, 15 mg/kg single).
The Cmax of `CS(=O)(=O)c1ccc([C@@H](O)[C@@H](CF)NC(=O)C(Cl)Cl)cc1` is reported as 10000 ± 710 ng/mL (chicken (Arbor Acres), plasma; oral, 20 mg/kg, added: quercetin 60 mg/kg pretreatment).
With `CC(C)c1nc(N(C)S(C)(=O)=O)nc(-c2ccc(F)cc2)c1/C=C/[C@@H](O)C[C@@H](O)CC(=O)O` the Cmax was 3.6 ng/mL (healthy volunteers, plasma; oral, 10 mg single dose, day 1, given alone, BCRP probe).
With `C=CC(=O)NC1CCN(c2ncc3ncnc(Nc4ccc(Oc5ccc6c(c5)ncn6C)c(C)c4)c3n2)CC1` the Cmax was 1450 nM (measured: total radioactivity; healthy male volunteers, plasma; oral solution, 60 mg, 14C-labelled, geometric mean).
`C[C@@](Cc1ccc(O)c(O)c1)(NN)C(=O)O` has a Cmax of 200 nM (Parkinson's disease patients, plasma; oral, low levodopa Cmax subgroup (<9 µmol/L), median).
